Results gathered from unrelated publications.
Each numbered part is a random draw from the data of one study; scales do not carry over between parts.

Sample 1
Target: Prothrombin, mature alpha-thrombin (F2, Homo sapiens, UniProt P00734)
Technique: aptamer microarray, sandwich
Molecule type: DNA with 2'F-ANA
Sample: in vitro
Concentration: 200 nM
Setting: whole 15-mer aptamer, many near background
Together with: Cy3 exosite-II aptamer, 400 nM
Reading: higher = stronger binding
Sequence: GGTTGGTGTGGTTGG
Modification | mean fluorescence intensity
2'F-ANA at 3 7 14 | 772 a.u.
2'F-ANA at 1 2 5 6 9 10 12 | 47 a.u.
2'F-ANA at 2 4 5 7 8 10 12 14 | 44.4 a.u.
2'F-ANA at 1 2 6 10 11 12 13 | 59.1 a.u.
2'F-ANA at 2 4 6 8 9 12 15 | 521 a.u.
2'F-ANA at 2 3 4 5 8 11 14 | 57.3 a.u.
2'F-ANA at 2 3 4 6 8 9 10 | 222 a.u.
2'F-ANA at 1 3 9 11 13 15 | 199 a.u.
2'F-ANA at 1 5 9 10 13 15 | 44.4 a.u.
2'F-ANA at 2 3 5 6 7 9 10 11 13 15 | 52.7 a.u.
2'F-ANA at 2 4 5 6 7 9 11 12 13 | 80.6 a.u.
2'F-ANA at 5 7 8 9 10 12 13 15 | 50.3 a.u.
2'F-ANA at 2 6 8 9 10 12 14 15 | 80.3 a.u.
2'F-ANA at 1 2 6 7 8 9 | 183 a.u.
2'F-ANA at 3 5 6 7 9 10 12 13 | 61.6 a.u.
2'F-ANA at 3 4 5 8 9 10 11 14 | 73.8 a.u.
2'F-ANA at 3 6 7 10 13 14 | 461 a.u.

Sample 2
Target: Interferon regulatory factor 5, full length, phosphomimetic (IRF5, Homo sapiens, UniProt Q13568-2, residues 1-514, K96S/S451D/S453D/S456D/S462D)
Technique: protein-binding microarray
Molecule type: double-stranded DNA, one strand shown
Sample: in vitro
Concentration: 250 nM
Setting: 60-bp whole probe
Together with: salmon DNA 0.4 mg/ml
Relative to: random background probes
Reading: higher = stronger binding
Constant ends, left off below: GCCTAGCAC … GTCTTGATTCGCTTGACGCTGCTG
Sequence | log fluorescence
TTCATTTTCCAAATGCCCTCGTGCTAG | 0.63 z-score
TCAGTGCTCATTTTTTTACTGTGCTAG | 0.528 z-score
ACTAATTTTCATTTTCCAAAGTGCTAG | 2.87 z-score
GGGCAGGAAACGGAGGACACGTGCTAG | -0.744 z-score
ACTCAGCTCCTCTTCCAGGCGTGCTAG | -0.306 z-score
CTAGGTATCCTACTGCTTTAGTGCTAG | -0.33 z-score
GAAGATTTCAGTTCCGAGACGTGCTAG | 1.15 z-score
TCAGGACTCAGGTCTCCCACTGTGCTA | -0.293 z-score
TAAGGACTGGGTCTCGGTTAGTGCTAG | 0.184 z-score
TTAGGTATCCTTATCATTTAGTGCTAG | 0.638 z-score
TTACATTTCAGTTCCGATTAGTGCTAG | 3.32 z-score
TCACCCATGAGTCTCAAACTGTGCTAG | -0.113 z-score
GACGATTTCAGACGGGAGACGTGCTAG | 0.0797 z-score
TTAGGACTGGGGACTGGTTTAGTGCTA | -0.397 z-score
GACGGTATCGACACCGGGGACGTGCTA | 1.53 z-score
TCCTCTGTCATTTTCTCTTAGTGCTAG | 1.78 z-score
TTAGGCTCCGGTTTCGGTTAGTGCTAG | 8.29 z-score
TCATTTTTTTTATTTATACTGTGCTAG | 1.29 z-score
CCAAGTTTATACCTTAGGTTGTGCTAG | -0.14 z-score
GACGATCTCAGACTGCAGACGTGCTAG | -0.233 z-score
TTGGGTTTCCTTTTCCTTTAGTGCTAG | 1.56 z-score
TTAGGTATCCATTTCCTTTAGTGCTAG | 0.419 z-score
TTAGGCTTCGACTATCGGTTAGTGCTA | 6.18 z-score
CACGGTTTCGACACTGGGGACGTGCTA | 4.14 z-score
GACGAACTGGGGACTTGAGACGTGCTA | -0.31 z-score

Sample 3
Target: Centromere-binding protein 1, full length, His-tagged (CBF1, Saccharomyces cerevisiae, UniProt P17106, residues 1-351)
Sequence of UniProt P17106 (whole entry, looked up): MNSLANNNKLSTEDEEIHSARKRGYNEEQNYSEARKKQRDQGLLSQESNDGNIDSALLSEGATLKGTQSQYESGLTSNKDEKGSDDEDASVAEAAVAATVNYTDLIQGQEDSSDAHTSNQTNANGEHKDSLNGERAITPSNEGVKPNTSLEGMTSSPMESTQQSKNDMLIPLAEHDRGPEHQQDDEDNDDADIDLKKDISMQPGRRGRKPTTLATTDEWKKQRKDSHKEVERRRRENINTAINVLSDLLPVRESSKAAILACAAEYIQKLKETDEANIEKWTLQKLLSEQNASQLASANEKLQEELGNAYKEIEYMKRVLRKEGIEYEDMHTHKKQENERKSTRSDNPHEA
Technique: competition protein-binding microarray
Molecule type: double-stranded DNA, one strand shown
Sample: in vitro
Concentration: 2 µM
Setting: whole 60-bp probe, lowest competitor level
Together with: Pho4 competitor, 0.05 µM
Reading: higher = stronger binding
Constant ends, left off below: … GTCTTGATTCGCTTGACGCTGCTG
Sequence | fluorescence intensity [a.u.]
CGAGTGTCATATTATATTAGATATTCATTTTTTTGC | 90.3
GTTAAGCATAAAAAGCACGTGCTTTAGATGTTTTCA | 2570
CGTCCTAGTGATTTTCACGTGCTCTCCATGAGGAAG | 1410
GTCGACAACTACTTAGTCGTGATGGAACAGTATGGA | 79.7
AATTCCAATCAAAAAGTTGGTGTTAGGCTATACTGA | 72.5
AAAGCGGTAATTTGGGTCGTGGGTGCAGATATCTAT | 93
TTCTTACTAAAATGTAGCGTGCATCCTTATAGGGCT | 83.8
CTTTCCCGATCTTGGGGCGTGGGTGTAGCACATTTG | 65.8
GTCTTGTCTCATTGTGTTGTGGGTGTCCCCACTTCA | 107
CTAACGAAGGTTTGAGGGGTGGGTGACAAGCCAAGT | 68.9
GAAAGCACTTTACTTCACGTGGGTACTATTCAGGTT | 1020
GGATGAAGTAGGAAACTCGTGAATATATAAACCCCG | 107
ACAATTTCTACTCCACACGTGGAATACGAAACGGCC | 373
GTCTTGTCTCATTGACACGTGTTTTTCCCCACTTCA | 1390
TGCGCAACAACTTGCTCGGTGGGTGTATGTCTAGAA | 71.3
GTCCTTTGGTGGTTCAACGTGAGTCAAGTCCTTGAA | 92.7
CATACCCAACCTTCGCACGTGTTTTAAGATATTTGT | 1220
GTCTTGTCTCATTGTCGTGTGGGTGTCCCCACTTCA | 70.9
AGAGGTATTACCCATCACGTGATGGTTATTTCTTTT | 18300
TCTTAAAGTGTTCGGCACGCAAGATACCACCTAGGG | 58.1
ATAAAGTGTCCCTGTCACACTCATACAACAACTGTT | 76.8
GTCTTGTCTCATTGTCTAGTGGGTGTCCCCACTTCA | 76.9
TAAGATATACCTCACCACGTGAGATTATAGAAGCAA | 1510
AGGTCGCTAAAAATCCACGTTAACGGGACGCTGGTA | 64.3

Sample 4
Target: Histone acetyltransferase KAT6A, winged helix 1, GST fusion (KAT6A, Homo sapiens, UniProt Q92794, residues 1-85)
Technique: protein binding microarray
Molecule type: double-stranded DNA, one strand shown
Sample: in vitro
Concentration: not given
Setting: 8-mer, flanks averaged, mean of 2 arrays, mostly near background
Relative to: not given
Reading: higher = stronger binding
Construct (chain): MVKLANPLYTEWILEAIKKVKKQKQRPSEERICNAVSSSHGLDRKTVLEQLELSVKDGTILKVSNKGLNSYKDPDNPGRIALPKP
Sequence | E-score
AAACCAAG | -0.213
CCGCTACG | 0.395
GGCAGGCC | 0.0666
ATGATTGG | -0.157
TACGAGAA | -0.0128
AACAAGAA | -0.111
TCATCGAA | -0.167
GACGTGGA | -0.159
CGATGTCC | 0.181
CACTGTAA | -0.144
AAATTAGA | -0.136
CTCGTCCA | -0.165
TGGGGAAA | -0.185
AACTCAAC | -0.255
CGGCCAAC | 0.191
CTGGCATA | -0.176
CTTCACTA | -0.256
ACTACTGC | 0.112
CATGCCAG | -0.163
CTTAATTC | -0.094
CATTAACA | -0.202
ACTACCCG | 0.207
CGACATCA | -0.0242
CAAGATCA | -0.154

Sample 5
Target: RNA binding protein fox-1 homolog 2, RRM domain, GST-SBP tag (RBFOX2, Homo sapiens, UniProt O43251-10, residues 100-194)
Technique: RNA Bind-n-Seq
Molecule type: RNA
Sample: in vitro
Concentration: 365 nM
Setting: natural RNA segment, single round, ends assumed
Relative to: no-protein control
Reading: higher = stronger binding
Constant ends, left off below: GGGAGUUCUACAGUCCGACGAUC … UGGAAUUCUCGGGUGCCAA
Residues (chain): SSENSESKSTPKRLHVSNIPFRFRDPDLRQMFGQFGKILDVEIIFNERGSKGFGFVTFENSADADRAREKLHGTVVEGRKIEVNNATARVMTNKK
Sequence | RBNS enrichment (R)
GAGUCUGGGUGCUUGUCACCUAGCCUGACAUUCUGAGUUCAAUCCCUGGGACCCGCCUGAUAGGAGAGAACUGACUUCUACAAGUUGUCCUCUGACCCAAUAGAUUUACA | 0.243
GUAUGGUUUCCCCAGGUCUGAACUGGGUACCCCCAGGGUGUUUACUAACUCUGGUGAAGGGUUUGGAAACCAUAUGUGGUUCUAGAAUUAACUCCCCUUUCCCUCAAACU | 0.318
UGGCGCCCUCAGAGACCCUGGCAUUGGCUGAGCCAAUGUUGGGCCUUCUGAAAAGAAGCCCAGGGGAUGGGGCCUUCAAGGUGCCGGUUUGGAGUUCAAAUCCUGCUCCU | 0.168
GAUCUGGCUGGCUUGGAUCUCGUUUUUAACCCGUUCCUGCCCCACCUGCCCUAUAGUUAUGGCCUGUGUUCUGCUCUCCUGGUCCCAGUGCACCGUCUGCUCUGUGAACU | 0.255
UGUCUCCCUGAUUUUCUACAGCGCCAGGAUCCUAGUUUGGUGAGGUUUUAAAUUUAAUCUUAUUUUUAUAUAAAAUGAUUGCCAGACGUACUAUAUUAAGCUUGAAGAAG | 0.687
CCCACAUCUCAGCGCUUUCCCCUUUUUUACCACUUAGACUUAAAGCAGGUGUCUUAAUUUACUCAACCUUCCCUAAAAGAGAAUUGUAUUGGGGCAGGAGGGAUCGCAGU | 0.688
CCUGCCGCUAUAGUGAGCUAAUGUCCUGAAUCCAAAGGCUUCAGAAAAUUGCUUUUGCCUUUUUCAUGAAUGUUAAGCAGCAGCAUUGUGAGAUCGAUCUGUCCUGGCAG | 0.523
GCAGGUAGAUUAGAGCUGUGAAAUCCAUGUACAUUAAUACCCAAUGGGAUAAACUUAGAUUUUUUUUUUACUCUGAACUCUGAAUUGUUUGUGCACAUAUUUCUGCUACC | 0.874
GGGGGGUUGAUCACAUACAUGUACCAUCGUGUGAUCAUAGUACUAUGAUUUGCUUUUGACGUCUGUCCUAGUGAUGUGUGUUGUCUGCUGGCAUGCUUGCAGCACAUGUC | 0.628
GCAUUCCCCCCAAGUUUAUUUCUACUUUCCAGAAACAAGCCACGGGAAGGGAAGGAACCUGCAGCAGGGUUUCGAAGACAGCCAGGCCCUCCGUGAUUGAGGGCUCAUAU | 0.244
UUUUGCUUGGUUUUCAGUGAUAGACAUGGGAUAGCCAAAAGAAGGGACUACCUGAAACCCCUAACUGGGGCGACUGAGCCUGUAGUGUGGUCAGUUCAAAGUUGCAUUUG | 2.05
AAGUUAAAAUUAAGUAUAUACUUUAGGAAGUUACCAAUAACUUCCAUCAAAGCAGAGUAGGAUAUAUGGUAACAUUAAUUUUCGGUCAUUUCAAAUGAGGUAUAUUUCUU | 0.33

Some of these lines once more (sample 4):
Sequence | E-score
AACAAGAA | -0.111
TCATCGAA | -0.167
GACGTGGA | -0.159
CGATGTCC | 0.181
CACTGTAA | -0.144
AAATTAGA | -0.136
CTCGTCCA | -0.165
TGGGGAAA | -0.185
AACTCAAC | -0.255
CGGCCAAC | 0.191
CTGGCATA | -0.176
CTTCACTA | -0.256
ACTACTGC | 0.112
CATGCCAG | -0.163
